# Published values from different studies.
# Values joined by “and” are separate records of one study, mostly repeats; a detail may differ. Numbers after ± are the reported error.
Compound,assay,test system,setting,plasma concentration
CC(CCC(=O)NCC(=O)O)C1CCC2C3CCC4CC(OC5OC(C(=O)O)C(O)C(O)C5O)CCC4(C)C3CC(O)C12C (stereo not drawn),,"healthy human volunteers, plasma","dose not given, 0 h, baseline phase, no drug",92.9 ± 25.4 nM
C[C@]12C[C@H](c3ccc(S(C)(=O)=O)cc3)C3=C4CCC(=O)C=C4CC[C@H]3[C@@H]1CC[C@@]2(O)C(F)(F)C(F)(F)F,refers to: compound (parent),"healthy human volunteers, pooled plasma","oral, 5 mg daily, day 28, 12 h",15.6 ng/mL
CCC(=O)N(C)c1ccc(Cl)c(Cl)c1,LC-MS/MS,"mouse C57BL/6 female, plasma","intravenous, 2 mg/kg, 0.083 h",846 ng/mL and 866 ng/mL
O=C(NS(=O)(=O)c1cccs1)c1cc2ccccc2n1Cc1ccc(Br)c2ccccc12,,"Sprague-Dawley rat, male","oral, dose not given, 0.5 h",4210 ng/mL
C[C@H](CCC(=O)NCC(=O)O)[C@H]1CC[C@H]2[C@@H]3[C@H](O)C[C@@H]4C[C@H](OS(=O)(=O)O)CC[C@]4(C)[C@H]3CC[C@]12C,,"healthy human volunteers, plasma","dose not given, 0 h, control phase, probe drugs alone",82.6 ± 20.6 nM
Cc1noc(C)c1Cn1cc(N2C(=O)CN(Cc3cccc(O[C@@H]4O[C@H](C(=O)O)[C@@H](O)[C@H](O)[C@H]4O)c3)C2=O)cn1,,"Sprague-Dawley rat, male","oral, 10 mg/kg of parent drug, 2 h",955 ng/mL
Cc1nn(-c2nc3c(F)cc(F)cc3s2)c(O)c1C(c1ccc(C(F)(F)F)cc1)c1c(C)nn(-c2nc3c(F)cc(F)cc3s2)c1O,,ICR mouse,"oral, 50 mg/kg, 4.00 h",42700 ng/mL and 31800 ng/mL and 30400 ng/mL
Cc1noc(C)c1Cn1cc(N2C(=O)CN(Cc3cccc(OS(=O)(=O)O)c3)C2=O)cn1,,"rat Sprague-Dawley male, plasma","intravenous, 1 mg/kg of parent drug, 0.08 h",3380 ng/mL
C=C[C@]1(C)C[C@@H](OC(=O)CSc2ccc(NC(=O)c3ccco3)cc2)[C@]2(C)[C@H](C)CC[C@]3(CCC(=O)[C@H]32)[C@@H](C)[C@@H]1O,,"Mycoplasma gallisepticum-infected chickens, plasma","intramuscular, 40 mg/kg, 0.5 h",4920 ng/mL and 5440 ng/mL and 4440 ng/mL and 5320 ng/mL and 4800 ng/mL and 6080 ng/mL and 5160 ng/mL and 5520 ng/mL

# Some of these lines once more:
Compound,assay,test system,setting,plasma concentration
C[C@]12C[C@H](c3ccc(S(C)(=O)=O)cc3)C3=C4CCC(=O)C=C4CC[C@H]3[C@@H]1CC[C@@]2(O)C(F)(F)C(F)(F)F,refers to: compound (parent),"healthy human volunteers, pooled plasma","oral, 5 mg daily, day 28, 12 h",15.6 ng/mL
